# Measurements of several laboratories.
# Parts stem from different laboratories: compare values within a part only. Changes are numbered by the printed parent chain.

# Set 1
# Target: CCNA2, cyclin fold, Cln2 fusion (human)
# Method: yeast growth competition, sequencing
# Sample: yeast
# Notes: strong parent motif
# Relative to: not given
# Direction: higher = stronger binding
# Starting sequence: PKN2 docking peptide (human); VSAVRKLDFSDTM
Substitution,normalised enrichment score
K6I,3.15
D8M,4.73
K6F,4.4
K6A,4.49
S10W,5.29
L7D,0.205
V4N,5.13
D8F,3.91
A3K,1.88
S10T,5.3
F9Y,3.67
K6Q,4.49
T12G,4.49
S2Y,4.67
S2A,5
T12A,5.57
F9W,3.38

# Set 2
# Target: RING finger protein unkempt homolog, zinc fingers 1-6, GST-SBP tag (UNK, Homo sapiens, UniProt Q9C0B0, residues 30-357)
# UniProt Q9C0B0, sequence (30-357, looked up): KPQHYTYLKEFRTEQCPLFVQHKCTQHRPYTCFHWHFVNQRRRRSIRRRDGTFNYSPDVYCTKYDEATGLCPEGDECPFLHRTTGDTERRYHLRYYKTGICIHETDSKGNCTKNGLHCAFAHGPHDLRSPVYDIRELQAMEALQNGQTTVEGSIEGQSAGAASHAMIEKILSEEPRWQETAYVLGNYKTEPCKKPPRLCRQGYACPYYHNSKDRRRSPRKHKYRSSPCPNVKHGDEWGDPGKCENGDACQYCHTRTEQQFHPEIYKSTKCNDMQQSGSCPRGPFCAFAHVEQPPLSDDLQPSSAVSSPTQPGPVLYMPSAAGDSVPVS
# Method: RNA Bind-n-Seq
# Molecule type: RNA
# Sample: in vitro
# Concentration: not given
# Notes: RNA with constant flanks, human and mouse sites, ends assumed
# Relative to: input RNA pool
# Direction: higher = stronger binding
# All sequences stand within: GGGAGUUCUACAGUCCGACGAUC … CAACAGAGGAUUGAGCAUCA
Strand,bound/input enrichment
UUCCCUGGAGAGUUCAUGAAGAGCUGGAGUGAUUGUCUCAACAAGGAGGGCUUUGACAAAGUAGACAUCAGCGCUGUUGUGGCAUACACCAUUGCUGUGAAAGAGGACGGUGAGCUCAAC,0.443 ratio
AAAAGGGAUUUGGGCCACUACCCAGCUAUUAUUGUUCAGUCAGUUGUGUCUCCUACCCACAUAGACAUGUGUGUGCAUAUGUACAACACACACACACACACACACACACACACACACACA,1.22 ratio
AAGAGGCACAGUUGGUUCAAGGCAAGUGGUACCAUCAAGAAGUUCCGAGCUGGCCUCAGCAUCUUCUCACCCAUUCCCAAGUCUCCCAGUUUUCCUAUCAUACAGGACUCUAUGCUGAAA,0.137 ratio
GGCUGGAGAAGGGCCCUUCUCAGAAACCUAUACCUUCAGCACAACCAAAAGUGUCCCCCCCACCAUCAAAGCACCUCGAGUAACACAGUUAGAAGGAAAUUCAUGUGAAAUUUUAUGGGA,0.971 ratio
AAUGUGGAACUAAGUUCGCUGGCCCGGCUUCCCAGCUUAAAUAAACUUCGAAAAUUGGAGCUUAGUGAUAAUAUAAUUUCUGGAGGCUUGGAAGUCCUGGCAGAGAAAUGUCCAAAUCUU,1.96 ratio
GAGCAAAAGUUUAAAAUUUUGUGAAUUUAUUAAAGCUCCGUUUGUUGCUUUUUUCUGUUCUAGUUUAUACUUUUGUAUCAUAUUUUAGGAAAUUUUGCACUGGGUAUUUGAUGGCUCCUG,4.1 ratio
UUGGUGUCCAGAGCUCACCAGCUGGUGAUGGAGGGAUAUAACUGGUGCCAUGACCGGAACGUAGUAACAAUUUUCAGUGCUCCAAACUAUUGCUAUCGUUGUGGUAACCAAGCUGCAAUC,0.164 ratio
AGAUGUCUCUUUGGGCCUGUCUGCCUGCUUUCCUUCCUUCCUUUUCUUUCCUUUUUUUUUUUGGUCAGUUGCCAUCUCAAUCUAAUCAUAGAUGUAAGAAUGCGGAAGCCAGAGUAACUC,0.513 ratio
AAAAAAAUGACUCAAGCCGUGUAUUUUUUAUAUUUUGAUAUACUCACUUGUGAAUUAAAGAAUAGGACUAUCACUGAUAAAGUAUCAAAAUAGUAAGAGUGGCAACAUUUUGAAAAUAUU,0.713 ratio
UUGUGUGUGAAAGUAGAUAGGACUCCGAAAGGCACCCAGGGUGUUGUCACAAAUUUUGAAAUUUUCCGAAUGAGGGAGAAACAGGUACCUGUGGAUGUGGUCGAGAUGAAAGAAACCAUC,0.283 ratio
AAGGAAGGGGUGGGCGUGAGAGCACUGGUGUUCGUACACUCAGCAGGAAGCUGCUGUCUGGCUCUGCUGAUCCAGAACGGCACUGCCUCAAGAGGGUGUCUGUGUUGCCUCGGUGGCCCC,0.0962 ratio

# Set 3
# Target: RNA binding protein fox-1 homolog 2, RRM domain, GST-SBP tag (RBFOX2, Homo sapiens, UniProt O43251-10, residues 100-194)
# Method: RNA Bind-n-Seq
# Molecule type: RNA
# Sample: in vitro
# Concentration: 365 nM
# Notes: natural RNA segment, single round, ends assumed
# Relative to: no-protein control
# Direction: higher = stronger binding
# All sequences stand within: GGGAGUUCUACAGUCCGACGAUC … UGGAAUUCUCGGGUGCCAA
# Construct (chain): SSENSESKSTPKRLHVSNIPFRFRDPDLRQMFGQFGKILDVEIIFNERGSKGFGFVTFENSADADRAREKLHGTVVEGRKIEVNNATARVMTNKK
Strand,RBNS enrichment (R)
GGGCCCGCUAAGUUCUGCUGAGCAGGCCUGUCCACGCUGUUCCUUACCGGUGAGACUGGGCUUGGACUGUACAAGACUUGAGUCCUAGACCUGGGUGUAUUUGCACUUUG,0.243
UGUGGUGGUGGAGUGGGGAGCUGGCUUCUGCUGGCCAGGAUAGCUUAACCCUGACUUUGGGAUCUGCCUGCAUCGGCGUUGGCCACUGUCCCCAUUUACAUUUUCCCCAC,0.395
GAGGGAGUAUGAAGUUUCCAUUGAGCCUCAAGUCUACAAGUCUGCAGGACCCAGGACCUCUGGUUCUCUCCUUGUUCUGGGCAGUGAGGAGCAUAGGACCUGGUCUCUGG,0.444
GCUUCCUUGGCUUGGGGGAGGGGGCAUCCGUCCCCCUCUGUGUGAACACAGCUCACCGCGUCACCUGAUGGAUGGCCCUACUGUGAAGGAAGAAAAAAGUUGGCAUUUCU,0.313
AAUGAAGGAGCAGCCUUCUGUUUACUAGAAAAAUGUUUGGGUUCACACGUGGUGCUGCUGCCCUGGGUACAGCCCACCAACACCCAGGGCCAGCCAGUAUCACCAGACCU,0.369
AGGAGCAGACUGCUGCUGUUUUGGGGCUAGAUCCUUUCCUCUCCUCUCUGCUGCACCACUGUCAGACUGGGCUCUAACCCAAGUGGAAUGCAACUGAGAGGGUCUUCCUG,0.298
CUACCACUUCUUUGAGAACCUCUGCUUUACGGUUGACACUGAUGCUUAUCUUUCUCUGGAGUUACGGAUUUGCCUGUGGAUUUAAUGCUCACACCAUGCUAUUUAAUUUU,1.89
UAUCCUGUAGCCAUUUUAUUUUUUAAAAGAUUCCUAACACUUUCUCCCUAACGGAAGCCCUAAAUCCCAGAGAGCUACAGGUCUGCUCCCCAUGGGCCCUCGGGCCUGAC,0.912
UUGGUGGGGCUGGCACGAAUCCAGAUCUGGAUCCUACAUCUGUUGGGUCUUAGGCCUCCUUCCCUCCUCAGUGUCUUUCAAAUGACUUUCAUCAAAUGACUUUCAAAAUA,0.427
UCUUAGACGAUAGAUACCCAUAUUUCUCCACAAAGUCAAUGCUAUCUUUUUAACAGCACUGUAGCAUUUUUCUUCGUUUAGAACCUUUACUGACUCCAUUGAGUCCCUGA,0.295
UUUAUUGUGCUGUUACUCUGUCGAGUGGCUAUUAAAAUUGUCUUAUGCUCUUUGGGCUAAGAGGGGAUCAUCUCGCUUAAGAUGUACUCCUGAUGUAAACAUUUCCCCCA,0.316
UGCCUCAGAAGCUGGCUGGGGACUCUAGCCUCUGUGUUCAUAAAGACAUUAAGAAGUGGAUGGAUGUUGUUCCUUUUUUGAAGUUGUCAUUAAAGUAGGUGCAACAACCA,0.263

# Set 4
# Target: UBE2R2 UBC core domain (UniProt Q712K3)
# Method: yeast two-hybrid
# Sample: yeast
# Notes: mostly zero background
# Relative to: not given
# Direction: higher = stronger interaction
# B1: MARCHF1 RING domain (UniProt Q8TCQ1); chain TAPRSQSRLSVCPSTQDICRICHCEGDEESPLITPCRCTGTLRFVHQSCLHQWIKSSDTRCCELCKYDFIMETKLKPLRKWE
# B2: ZNRF4 RING domain (UniProt Q8WWF5); chain VRTFTWHNDLCAICLDEYEEGDQLKILPCSHTYHCKCIDPWFSQAPRRSCPVCKQSVAATEDSF
# B3: RNF103 RING domain (UniProt O00237); chain WPADMLHCTECVVCLENFENGCLLMGLPCGHVFHQNCIVMWLAGGRHCCPVCRWPSYKKKQPY
# B4: NFX1 RING domain (UniProt Q12986); chain IEQLTTEKYECMVCCELVRVTAPVWSCQSCYHVFHLNCIKKWARSPASQADGQSGWRCPACQNVSAHVPNTY
# B5: TRIM11 RING domain (UniProt Q96F44); chain LSTNLQEEATCAICLDYFTDPVMTDCGHNFCRECIRRCWGQPEGPYACPECRELSPQRNLRP
# B6: TRIM41 RING domain (UniProt Q8WV44); chain PVQTLQEEAVCAICLDYFTDPVSIGCGHNFCRVCVTQLWGGEDEEDRDELDREEEEEDGEEE
# B7: ARIH2 RING domain (UniProt O95376); chain HVPTSHPPHHCAVCMQFVRKENLLSLACQHQFCRSCWEQHCSVLVKDGVGVGVSCMAQDCPLRTPEDFVF
# Residues (chain): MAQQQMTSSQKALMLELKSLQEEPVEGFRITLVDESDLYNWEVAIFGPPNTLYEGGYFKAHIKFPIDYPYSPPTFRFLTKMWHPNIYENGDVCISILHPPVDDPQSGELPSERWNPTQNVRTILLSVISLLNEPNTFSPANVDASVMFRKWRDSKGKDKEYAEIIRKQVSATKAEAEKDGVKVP
Sequence,lacZ reporter activity
EIKEYKARLTCPCCNTRKKDAVLTKCFHVFCFECVRGRYEARQRKCPKCNAAFGAHDFHR (RNF40 RING domain (UniProt O75150)),0
B1 (MARCHF1 RING domain),0
ASPKIFQKTKCSICNSALELPSVHFLCGHSFHQHCFESYSESDADCPTCLPENRKVMDMI (VPS11 RING domain (UniProt Q9H270)),0
B2 (ZNRF4 RING domain),0
B3 (RNF103 RING domain),0
B4 (NFX1 RING domain),0
B5 (TRIM11 RING domain),0
B6 (TRIM41 RING domain),0
DDVLTKDAGECVICLEELLQGDTIARLPCLCIYHKSCIDSWFEVNRSCPEHPAD (ZNRF1 RING domain (UniProt Q8ND25)),0
FAEQPSVKLCCQLCCSVFKDPVITTCGHTFCRRCALKSEKCPVDNVKLTVVVNNI (TRAF7 RING domain (UniProt Q6Q0C0)),0
B7 (ARIH2 RING domain),0

# A few entries again (set 3):
Strand,RBNS enrichment (R)
UGUGGUGGUGGAGUGGGGAGCUGGCUUCUGCUGGCCAGGAUAGCUUAACCCUGACUUUGGGAUCUGCCUGCAUCGGCGUUGGCCACUGUCCCCAUUUACAUUUUCCCCAC,0.395
UGCCUCAGAAGCUGGCUGGGGACUCUAGCCUCUGUGUUCAUAAAGACAUUAAGAAGUGGAUGGAUGUUGUUCCUUUUUUGAAGUUGUCAUUAAAGUAGGUGCAACAACCA,0.263
AGGAGCAGACUGCUGCUGUUUUGGGGCUAGAUCCUUUCCUCUCCUCUCUGCUGCACCACUGUCAGACUGGGCUCUAACCCAAGUGGAAUGCAACUGAGAGGGUCUUCCUG,0.298
GGGCCCGCUAAGUUCUGCUGAGCAGGCCUGUCCACGCUGUUCCUUACCGGUGAGACUGGGCUUGGACUGUACAAGACUUGAGUCCUAGACCUGGGUGUAUUUGCACUUUG,0.243
UCUUAGACGAUAGAUACCCAUAUUUCUCCACAAAGUCAAUGCUAUCUUUUUAACAGCACUGUAGCAUUUUUCUUCGUUUAGAACCUUUACUGACUCCAUUGAGUCCCUGA,0.295
CUACCACUUCUUUGAGAACCUCUGCUUUACGGUUGACACUGAUGCUUAUCUUUCUCUGGAGUUACGGAUUUGCCUGUGGAUUUAAUGCUCACACCAUGCUAUUUAAUUUU,1.89
